Measured values from different studies.
Compare with care: the assays were run in different laboratories. Several values in a cell are separate wells, animals, samples, runs or records. ± gives the spread as reported.
CASP1: Caspase-1 (CASP1, Homo sapiens, UniProt P29466)
HSP90AA1 N-terminal domain: Heat shock protein HSP 90-alpha, N-terminal domain (HSP90AA1, Homo sapiens, UniProt P07900)
Rhomboid protease AarA: Rhomboid protease AarA (Providencia stuartii, UniProt P46116)
T1: G-quadruplex RNA, G-quadruplex (Homo sapiens); GGGAGGGGCGGGUCUGGG
T2: ssRNA, hairpin with 1x1 G/G internal loops (Homo sapiens); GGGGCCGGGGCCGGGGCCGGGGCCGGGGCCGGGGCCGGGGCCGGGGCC

Compound	target	assay	test system	setting	how to read	endpoint	result
CC(C)Oc1cc(Cl)ccc1CNc1cc(-c2ccccc2)nc2ncnn12	G-protein coupled receptor 3 (GPR3, Homo sapiens, UniProt P46089, M156A)	cAMP level, cAMP GloSensor	–	3 µM	higher = more cAMP	cAMP luminescence	11000 a.u. and 9750 a.u. and 9980 a.u. and 8240 a.u.
CC(C)(C)OC(=O)NC(Cc1cccc(Cl)c1)C(=O)NCC=CS(=O)(=O)c1ccccc1 (stereo not shown)	Procathepsin L (CTSL, Homo sapiens, UniProt P07711)	inhibitor	–	with: Z-Phe-Arg-pNA	–	kinact/Ki	16400 M⁻¹ s⁻¹
O=C(NC[C@@H](Cc1ccc(F)cc1)N1CCC(O)(C(F)(F)F)CC1)C1(c2ccc(Cl)cc2)CCCC1	Transient receptor potential cation channel subfamily A member 1 (Trpa1, Rattus norvegicus, UniProt Q6RI86, M949I)	–	rat	dose not given	–	activity	inactive
Cn1cc(-c2cc(N3CCCCS3(=O)=O)ccc2N[C@H]2CC[C@H](C)CC2)c2cc[nH]c2c1=O (stereo in doubt)	SWI/SNF-related matrix-associated actin-dependent regulator of chromatin subfamily A member 2 (SMARCA2, Homo sapiens, UniProt P51531)	binding	–	1 µM	–	remaining binding	100%
COc1ccc(C(=O)c2c(C(=O)NCCCN(C)C)oc3ccc(Cl)cc3c2=O)cc1OC	Growth hormone secretagogue receptor type 1 (GHSR, Homo sapiens, UniProt Q92847)	endosomal trafficking, agonist, bystander BRET 2xFYVE-Venus	–	15 min, unit not given	baseline: baseline	Emax (net BRET)	0.028 ± 0.004
CC(=O)N[C@H](CCc1ccccc1)C(=O)N[C@@H](CCC(=O)O)C(=O)N[C@@H](CCC(N)=O)C(=O)N[C@@H](CC(=O)O)C(=O)COC(=O)c1c(C)cccc1C	CASP1	enzyme activity, inhibitor	–	–	–	kinact/KI	20300 M⁻¹ s⁻¹
Clc1ccc(OCc2nn3c(-c4ccccn4)nnc3s2)cc1	HSP90AA1 N-terminal domain	SPR, two-state model	N-terminal domain	–	–	kon	389 ± 441 M⁻¹ s⁻¹
CC(=O)[C@]12NC(C)(C)C[C@@]1(C)C(=O)C1=C2c2c(c3c4n2C(C)(C)CC2=C4[C@@]4(CC(C)(C)N[C@@](C)(C4)C2=O)CC3(C)C)C(=O)C(C)(C)N1 (racemic)	Delta-type opioid receptor (OPRD1, Homo sapiens, UniProt P41143)	cAMP level, agonist, LANCE Ultra cAMP	CHO	10 µM	–	activation	2.44%
CC(=O)N[C@@H](Cc1c[nH]c2ccccc12)C(=O)N[C@@H](CCC(=O)O)C(=O)N[C@@H](C)C(=O)N[C@@H](CC(=O)O)C(=O)COC(=O)c1c(C)cccc1C	CASP1	enzyme activity, inhibitor	–	–	–	kinact/KI	4.87e+06 M⁻¹ s⁻¹
Cc1ccc(S(=O)(=O)N2CC(NC(=O)c3ccc(C#N)cc3)C2=O)cc1 (stereo not shown)	Rhomboid protease AarA	enzyme activity, inhibitor, fluorogenic peptide substrate	–	–	–	IC50	inactive
CC(C)(O)c1ccn2c(-c3ccc(F)c(-c4ccc(F)cc4C#N)c3)cnc2c1F	Gamma-aminobutyric acid receptor subunit alpha-1 (GABRA1, Homo sapiens, UniProt P14867, G251D)	total protein level, Western blot	HEK-293T stably expressing GABAA receptors	5 µM, single dose, with: hispidulin 10 µM	–	time to peak increase	12 to 24 h
Nc1ccn([C@@H]2O[C@H](COP(=O)(O)OP(=O)(O)OP(=O)(O)O)[C@@H](O)[C@H]2O)c(=O)n1	RNA-directed RNA polymerase L (Human respiratory syncytial virus A, UniProt P28887)	nucleotide incorporation, substrate	–	–	–	Vmax	0.79 fraction per time
O=C(CSc1nc2cc(Cl)c3cccnc3c2o1)c1ccc(O)c(O)c1	HSP90AA1 N-terminal domain	SPR, two-state model	N-terminal domain	–	–	kon	1480 ± 1170 M⁻¹ s⁻¹
CCCCCC(O)/C=C/C=O (stereo not shown)	Nuclear pore complex protein Nup155 (Homo sapiens, UniProt O75694)	competitive isoTOP-ABPP, refers to: NUP155 cysteine peptide	proteome, soluble, MDA-MB-231	100 µM, with: iodoacetamide probe	baseline: DMSO over compound-treated, higher = stronger cysteine blockade	isoTOP-ABPP competition ratio	2.3
CCCCCCCCCCCCCCCC(=O)NCCCC[C@H](NC(=O)[C@H](CCC(=O)O)NC(=O)[C@H](Cc1ccc(O)cc1)NC(=O)[C@H](CCC(=O)O)NC(=O)COCC(=O)NCCCOCCOCCOCCCNC(=O)[C@H](Cc1c[nH]c2ccccc12)NC(=O)[C@H](CCCCN)NC(=O)[C@H](C)NC(=O)[C@H](CCCCNC(=N)N)NC(=O)[C@H](CCC(N)=O)NC(=O)[C@H](Cc1c[nH]cn1)NC(=O)[C@H](CCSC)NC(=O)[C@H](CC(C)C)NC(=O)[C@H](CCC(N)=O)NC(=O)[C@@H](NC(=O)[C@H](CCC(=O)O)NC(=O)C(C)(C)NC(=O)[C@@H](NC(=O)C(C)(C)N)C(C)C)[C@@H](C)CC)C(=O)N[C@@H](CCC(=O)O)C(=O)N[C@@H](Cc1ccc(O)cc1)C(=O)N[C@@H](CCC(=O)O)C(N)=O	Parathyroid hormone/parathyroid hormone-related peptide receptor (PTH1R, Homo sapiens, UniProt Q03431)	agonist	Saos-2 with cAMP reporter	1 pM, 90 min, washout after 30 min ligand	higher = more cAMP	cAMP luminescence AUC	111 a.u.
CN(Cc1cc(C2CC2)on1)C(=O)c1cccc(-c2ccc3c(c2)CCO3)c1	Acetyl-CoA synthetase (Cryptococcus neoformans, UniProt J9VFT1)	enzyme activity, inhibitor, coupled pyrophosphate	–	1.95 µM	higher is more activity	reaction rate	0.00128 a.u.
C#CCOC(=O)[C@@]1(C)C=C(C(=O)OC(C)(C)C)C(=O)CC1	Mitogen-activated protein kinase 1 (MAPK1, Homo sapiens, UniProt P28482)	enzyme activity, D-SENSOR	–	0.5487 µM, single replicate	–	normalized kinase activity	1.01 and 1 and 1.05
CCCCCCOc1ccc(C(=O)OCCN2CC=CCC2)cc1	Muscarinic acetylcholine receptor M4 (CHRM4, Homo sapiens, UniProt P08173)	–	membranes	100 µM, 15 h, no carbachol	baseline: control	basal binding	0.75 ± 0.04 fold
CC(=O)N[C@@H](CC(=O)O)C(=O)N[C@@H](C)C(=O)N[C@@H](Cc1ccc(N)cc1)C(=O)N[C@@H](CC(=O)O)C(=O)COC(=O)c1c(C)cccc1C	CASP1	enzyme activity, inhibitor	–	–	–	kinact/KI	26700 M⁻¹ s⁻¹

Compound	target	assay	test system	setting	how to read	endpoint	result
O=C1c2sc(-c3ccc(N4CCC(F)C4)nc3F)nc2CCN1c1cccnc1 (stereo not shown)	TAR DNA-binding protein 43, aggregated (TARDBP, Homo sapiens, UniProt Q13148)	radioligand binding	control brain sarkosyl-insoluble extract	52.06 nM	–	specific binding	0.028 nM
Cc1cccc(NC(=O)C(C(F)(F)F)C(F)(F)F)c1	Rhomboid protease AarA	–	–	–	baseline: IC50 chymotrypsin over IC50 AarA	selectivity ratio	1
N=C(N)NCCS(=O)(=O)O	Sodium- and chloride-dependent taurine transporter (SLC6A6, Homo sapiens, UniProt P31641, Y138A)	binding, microscale thermophoresis	–	38 nM, fitted curve	higher = more binding	fraction bound	0
N#CN1CC[C@H](C(=O)Nc2nc3c(s2)CN(C(=O)Cn2cc(COCCOCCOCCOCCNC(=O)CCCC[C@@H]4SC[C@@H]5NC(=O)N[C@@H]54)nn2)CC3)C1	Ubiquitin thioesterase OTUB1 (OTUB1, Homo sapiens, UniProt Q96FW1)	probe binding, affinity probe, neutravidin pull-down LC-MS/MS	HEK293T, cell lysate	5 µM, 1 h, mean of three replicates, unit not given	higher = more pulled down	iBAQ abundance	778000
O=C(N1CCCC1)n1cc(-c2ccc(-c3ccccc3)cc2)nn1	Platelet-activating factor acetylhydrolase IB subunit alpha2 (Mus musculus, UniProt Q61206)	probe labelling, inhibitor, competitive ABPP-SILAC, refers to: Pafah1b2	mouse T cells	concentration not given, 4 h, protein level	baseline: treated over DMSO cells, lower = stronger inhibition	SILAC activity ratio	1.23
CC(=O)N[C@@H](CC(=O)O)C(=O)N[C@@H](CC(C)C)C(=O)N[C@H](C(=O)N[C@@H](C)C(=O)N[C@@H](CC(=O)O)C(=O)COC(=O)c1c(C)cccc1C)[C@@H](C)O	CASP1	inhibitor	–	recombinant enzyme	–	kobs/[I]	72000 M⁻¹ s⁻¹
CCN(CC)C(CO)c1cccc2c(C)c(C)oc12 (stereo not shown)	Lysophosphatidic acid receptor 1 (LPAR1, Homo sapiens, UniProt Q92633, W210A)	G-protein dissociation, agonist, NanoBiT	HEK-293T	10 pM, W210A mutant	baseline: baseline luminescence	fold change	0.999 and 1.03 and 1 and 0.977 and 1.01
Nc1nc2c([C@@H]3N[C@H](COP(=O)(O)O)[C@@H](O)[C@H]3O)c[nH]c2c(=O)[nH]1	Uncharacterized protein (Trypanosoma cruzi, UniProt Q4DRC3)	inhibitor, spectrophotometric IMP formation	–	–	baseline: human HGPRT Ki over Uncharacterized protein Ki	selectivity ratio	0.0001
CCCCCCCCCCCCC/C=C/C=O	WW domain-containing adapter protein with coiled-coil (WAC, Homo sapiens, UniProt Q9BTA9)	competitive isoTOP-ABPP	Ramos soluble proteome	100 µM, with: iodoacetamide probe	baseline: DMSO over compound-treated, higher = stronger cysteine blockade	isoTOP-ABPP competition ratio	1
COc1ccc(Cl)cc1NC(=O)CC(F)(F)F	Rhomboid protease AarA	enzyme activity, inhibitor, fluorogenic peptide substrate	–	–	–	IC50	inactive
Cc1nnc(-c2ccc(CC(=O)NCCOCCOCC(=O)NC(CCN3C4CCC3CC(n3c(C)nnc3C(C)C)C4)c3ccccc3)cc2)nn1 (stereo not shown)	C-C chemokine receptor type 5 (CCR5, Homo sapiens, UniProt P51681)	calcium mobilisation, antagonist	HEK-293T expressing CCR5	top constrained to 1, with: PSC-RANTES	–	bottom of curve	0.308 fraction of maximum
C#CCCC1(CCC(=O)NCC2CN(CCCCCNC(=O)CN(CCN)C(=O)Cn3cnc4c(=O)[nH]c(N)nc43)CCN(CCCCCNC(=O)CN(CCN)C(=O)Cn3cnc4c(=O)[nH]c(N)nc43)CCN(CCCCCNC(=O)CN(CCN)C(=O)Cn3cnc4c(=O)[nH]c(N)nc43)CCN2CCCCCNC(=O)CN(CCN)C(=O)Cn2cnc3c(=O)[nH]c(N)nc32)N=N1 (stereo not shown)	T1, G-quadruplex RNA, G-quadruplex (Homo sapiens)	FRET melting	–	–	–	change in melting temperature	12.8 °C
O=C(CN1CCCN(C(=O)CN2CCCN(Cc3cccc4cnccc34)CC2)CC1)NCCCOCCNCCOCCCNC(=O)CN1CCCN(C(=O)CN2CCCN(Cc3cccc4cnccc34)CC2)CC1	T2, ssRNA, hairpin with 1x1 G/G internal loops (Homo sapiens)	BLI	–	–	–	Kd	3.3 µM
O=C1C(Cl)=C(NCCN2CCOCC2)C(=O)c2ncccc21	N-lysine methyltransferase KMT5A (KMT5A, Homo sapiens, UniProt Q9NQR1)	enzyme activity, radiometric filter	–	8 h, 1 µM native enzyme	–	Hill coefficient	1.2
CC(=O)N[C@@H](Cc1ccccc1Cl)C(=O)N[C@@H](CCC(=O)O)C(=O)N[C@@H](C)C(=O)N[C@@H](CC(=O)O)C(=O)COC(=O)c1c(C)cccc1C	CASP1	enzyme activity, inhibitor	–	–	–	kinact/KI	3.72e+06 M⁻¹ s⁻¹
COc1cc(Nc2nccc(-c3cnn4nc(OC)ccc34)n2)cc(C(F)(F)F)c1	Mast/stem cell growth factor receptor Kit (KIT, Homo sapiens, UniProt P10721)	binding, competition with immobilised ligand	–	1 µM	–	remaining binding	67%
CN(C)S(=O)(=O)c1ccc(S(=O)(=O)N2CCC(n3c(=O)[nH]c4ccccc43)CC2)cc1	mfd, C-terminal domain (Escherichia coli, UniProt P30958)	inhibitor	–	concentration not given	baseline: untreated	ATPase activity	18.6%
COc1cc(-c2cn(C)c(=O)c3cnccc23)cc(OC)c1CN(C)C	Peregrin (BRPF1, Homo sapiens, UniProt P55201)	–	–	–	–	ΔTm	0 °C
